{"data": "Results of several laboratories", "note": "A part holds a random share of what one study measured. Substitutions count along the parent as printed."}
{"data": "Set 1", "target": "RNA binding protein fox-1 homolog 2, RRM domain, GST-SBP tag (RBFOX2, Homo sapiens, UniProt O43251-10, residues 100-194)", "method": "RNA Bind-n-Seq", "molecule type": "RNA", "sample": "in vitro", "concentration": "365 nM", "notes": "natural RNA segment, single round, ends assumed", "relative to": "no-protein control", "direction": "higher = stronger binding", "all sequences stand within": "GGGAGUUCUACAGUCCGACGAUC … UGGAAUUCUCGGGUGCCAA", "Residues (chain)": "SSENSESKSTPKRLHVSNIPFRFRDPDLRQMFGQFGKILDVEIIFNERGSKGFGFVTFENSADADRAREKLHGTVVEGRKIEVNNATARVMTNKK"}
{"Strand": "ACUGUUCACUGUACAAAAGCUUACAGUUUUCCACAAGGACUUUAAUAACUAGCUGGGAAAAGACGAUGUAAUUAUUUCGGGGCUCUGCGGAACCUUCUCUGUACAGCGCC", "RBNS enrichment (R)": 0.17}
{"Strand": "CACGCCAUCCAGCAGCGCUAAGGUGGACAUGGGAUUCCUCCCUGCGAUGCGUGUCUUUCCCACGCAGAGAAGCCCAGUCUCUUCUCUGGAUCUGGGCCUUUGAACAACUG", "RBNS enrichment (R)": 0.553}
{"Strand": "AAACUAUUGUAGGCUCCCUCGCCAAACCAUGGCUUUCCCUCAGCAUCAAGACCUGUGCCAAGGAGAAGGGAGAGGCCGGAGGCUGCUUUGGAUGCCCAGACACACAUCUU", "RBNS enrichment (R)": 1.32}
{"Strand": "GUAUUUGCUUUUUUGUUUUGGCUGAAAUUCUCCUGGAGGUCGGUAGGUUCAGCCAAGGUUUUAUAAGGCUGAUGUCAAUUUCUGUGUUGCCAAGCUCCAAGCCCCAUCUU", "RBNS enrichment (R)": 0.65}
{"Strand": "CCUUCCCUGGAUGGAGUCAGGGCGGGGGCACUGUCCUCCACUGCUAGACACCCCCAGAAUGCCUGGCGCUCUGCAGAGCACAGUCUGAGCUGCUCUAAGAAGGGGUCUCC", "RBNS enrichment (R)": 0.335}
{"Strand": "AGCAUCCUUAGAUUGGCUCAACUGUUACUUUCCUAAGGAGUCCUUCUACAGAAUAGGUCAGAUCUUGGCCUCCCAAACCCCUUAUUUUUAAAAUACUUUGCGCCUUGCUU", "RBNS enrichment (R)": 17.5}
{"Strand": "CAGGAAGAAAUGCAAAAUCAUGAAGAUGUUAAUGUUGGUUCUAUUUUGAUUCAACAUCACAAAAAAGAAAAAUUCAGUGGUUCCAGUAAAGAUUUGAAAUUUGUUAAAAU", "RBNS enrichment (R)": 0.741}
{"Strand": "UAGAUGGUUUUGAAAAAUGAACUGAGCUGCCUUCCCCCGUCGCAUAACCAGUUCCAUCAUCCUGGUGGAACUUGAACAUUUAGAGUUUAUCUAGAGAGCUUGGUUAAUCU", "RBNS enrichment (R)": 0.431}
{"Strand": "AGUGAUUUUCCAGAGUGCUCGAUACUGUUAAUUACAUCUCCAUUAGGGCUGAAAAGAAUGACCUACGUUUCUGUAUACAGCUGUGUUGCUUUUGAUGUUGUGUUACUGUA", "RBNS enrichment (R)": 3.21}
{"Strand": "GCACAAAAGGUUUUGGUUUUGGUCUGGUGUAGCUUUGGCUGUCCUGAAAUGAAACACUCACUAUAUAAACCACACUUGCCUCACAGAGAUCCUCCUGCCUCUGUCUCCUG", "RBNS enrichment (R)": 0.357}
{"Strand": "AGGGACUUUUUUUGAAUCCUCAGUGGCAUUUUUUUAAGGGAAAUAUGCAGAGUGGAUAUCUGGGUGGGUUGGGCCACAAGAUUGGAUUUUGGUUCCACUUGGACAACAAA", "RBNS enrichment (R)": 0.733}
{"Strand": "CUUUUUUUUUUUUUUUCAUCGAAGGCCUAAAAUGAUCGCGAUUCGAAAAAACAACGAGAAAAUGACGUCGCUCCAUUUCAACCCCACUCCUACCCCUUUCCUCACCCCCA", "RBNS enrichment (R)": 0.456}
{"data": "Set 2", "target": "CCND1, cyclin fold, Cln2 fusion (human)", "method": "yeast growth competition, sequencing", "sample": "yeast", "notes": "strong parent motif", "relative to": "not given", "direction": "higher = stronger binding", "starting sequence": "CDKN1A docking peptide (human); SKACRRLFGPVDS"}
{"Variant": "SKDCRRLFGPVDS [A3D]", "normalised enrichment score": -0.063}
{"Variant": "SHACRRLFGPVDS [K2H]", "normalised enrichment score": 2.6}
{"Variant": "SKACRMLFGPVDS [R6M]", "normalised enrichment score": 2.67}
{"Variant": "SSACRRLFGPVDS [K2S]", "normalised enrichment score": 3.29}
{"Variant": "SKACRRLFGPVHS [D12H]", "normalised enrichment score": 1.54}
{"Variant": "SKALRRLFGPVDS [C4L]", "normalised enrichment score": 0.608}
{"Variant": "SKGCRRLFGPVDS [A3G]", "normalised enrichment score": 0.439}
{"Variant": "SKACRLLFGPVDS [R6L]", "normalised enrichment score": 1.66}
{"Variant": "SKACRELFGPVDS [R6E]", "normalised enrichment score": 2.47}
{"Variant": "SKHCRRLFGPVDS [A3H]", "normalised enrichment score": 0.524}
{"Variant": "SKACRRYFGPVDS [L7Y]", "normalised enrichment score": 0.334}
{"Variant": "SKACRRLFGKVDS [P10K]", "normalised enrichment score": 1.18}
{"Variant": "SCACRRLFGPVDS [K2C]", "normalised enrichment score": 1.67}
{"Variant": "SKACRRAFGPVDS [L7A]", "normalised enrichment score": -0.281}
{"Variant": "SKACYRLFGPVDS [R5Y]", "normalised enrichment score": 0.515}
{"Variant": "SKACRRLFGPPDS [V11P]", "normalised enrichment score": 3.15}
{"Variant": "SKACRRSFGPVDS [L7S]", "normalised enrichment score": -0.0665}
{"Variant": "SKACVRLFGPVDS [R5V]", "normalised enrichment score": 0.726}
{"Variant": "SKACRRLFRPVDS [G9R]", "normalised enrichment score": 0.846}
{"Variant": "SKCCRRLFGPVDS [A3C]", "normalised enrichment score": 1.68}
{"Variant": "SKACRRLFFPVDS [G9F]", "normalised enrichment score": 5.14}
{"Variant": "SKACRVLFGPVDS [R6V]", "normalised enrichment score": 4.03}
{"Variant": "AKACRRLFGPVDS [S1A]", "normalised enrichment score": 1.25}
{"data": "Set 3", "target": "Fragile X messenger ribonucleoprotein 1, C-terminal low-complexity region (Fmr1, Mus musculus, UniProt P35922)", "method": "RNA Bind-n-Seq", "molecule type": "RNA", "sample": "in vitro", "concentration": "200 nM", "notes": "whole 134-nt RNA, ends assumed", "together with": "150 mM LiCl", "relative to": "input library", "direction": "higher = stronger binding", "all molecules": "7-deaza-guanosine replaces G", "all sequences stand within": "GGGAGUUCUACAGUCCGACGAUC … UGGAAUUCUCGGGUGUCAAGG"}
{"Strand": "UCCUGUGCUACACAUCGUAUGUACCGAAUCGGGCCCCCCGGCCCCCCGGCCCCCCGGGGAAAGUAUUAUGUUACGCCGUUCGGAUCUGCA", "log2 enrichment": 1.42}
{"Strand": "UGGCCCUGGUGGCAUGCGGGGAGGCAGAGGUGGCCUCAUGGAUCGUGGUGGUCCCGGUGGAAUGUUCAGAGGUGGCCGUGGUGGAGACAG", "log2 enrichment": -0.518}
{"Strand": "UGUGCUACACAUCGUAUGUACCGAAUCGGGGUUUUUUUGGGGUUUUUUUGGUUUUUUUGGGGAAAGUAUUAUGUUACGCCGUUCGGAUCU", "log2 enrichment": 1.21}
{"Strand": "AAGUCCUGUGCUACACAUCGUAUGUACCGAAUCGGUUUUUGGAAAGGUUUUUUUGGAAAGUAUUAUGUUACGCCGUUCGGAUCUGCACUU", "log2 enrichment": -2.43}
{"Strand": "UUGUGGAAAACCCACAUGCUCCUCAGAAAGAUGAUGCCCUGGUGAUCACACACUACAACCGGACCCGACAGCAGGAAGAGAUGCUGGGGC", "log2 enrichment": -0.84}
{"Strand": "UCCUGUGCUACACAUCGUAUGUACCGAAUCGGGGCCCCCCGGCCCCCCGGGGCCCCCCGGAAAGUAUUAUGUUACGCCGUUCGGAUCUGC", "log2 enrichment": -0.852}
{"Strand": "CUGUGCUACACAUCGUAUGUACCGAAUCGGGCCCCCCCGGGGCCCCCCCGGCCCCCCCGGGAAAGUAUUAUGUUACGCCGUUCGGAUCUG", "log2 enrichment": -0.856}
{"Strand": "UUUGAAAAAGAAGAAAAAGAAAAAGAAGGGUAAGGCAUUAAAAAAGUCUUUAUAAAUUUUCUCCAAAAUAAAUGUUUGAUUUUAGCCCUA", "log2 enrichment": -2.91}
{"Strand": "CAAGUCCUGUGCUACACAUCGUAUGUACCGAAUCGGGGAGGGGUUUGGGGAGGGGAAAGUAUUAUGUUACGCCGUUCGGAUCUGCACUUC", "log2 enrichment": 0.317}
{"Strand": "UCCUCAAGUCCUGUGCUACACAUCGUAUGUACCGAAUCGGUGGGGUGGGUGGAAAGUAUUAUGUUACGCCGUUCGGAUCUGCACUUCCAG", "log2 enrichment": 0.422}
{"Strand": "GCAGGAAGUAAAAACAAAUGGAAAUGCUUCGGAUAGUGGCAUGGGUGGGGGUUGCUAAGGAAAGGGUGGGAUGGGAGUGGGUAAAGAGUU", "log2 enrichment": 1.35}
{"data": "Set 4", "target": "Phosphate system positive regulatory protein PHO4, full length, GST-tagged (PHO4, Saccharomyces cerevisiae, UniProt P07270, residues 1-312)", "method": "competition protein-binding microarray", "molecule type": "double-stranded DNA, one strand shown", "sample": "in vitro", "concentration": "2 µM", "notes": "whole 60-bp probe, lowest competitor level", "together with": "Cbf1 competitor, 0.05 µM", "direction": "higher = stronger binding", "all sequences stand within": "… GTCTTGATTCGCTTGACGCTGCTG", "Target sequence (chain)": "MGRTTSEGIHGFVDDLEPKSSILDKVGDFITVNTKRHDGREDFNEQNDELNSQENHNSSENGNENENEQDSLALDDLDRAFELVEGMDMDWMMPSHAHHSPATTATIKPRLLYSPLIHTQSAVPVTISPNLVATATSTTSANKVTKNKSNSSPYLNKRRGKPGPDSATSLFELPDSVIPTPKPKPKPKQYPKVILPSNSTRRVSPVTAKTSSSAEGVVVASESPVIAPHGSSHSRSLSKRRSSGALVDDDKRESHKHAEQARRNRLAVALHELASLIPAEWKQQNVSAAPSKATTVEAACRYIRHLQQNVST"}
{"Strand": "GAATTTTTTCGAATTAGCGTGCTTTCACTGCTTGCA", "fluorescence intensity": "5520 a.u."}
{"Strand": "ACCTTGGTCCAAGGTCACGAGGAGCTGTCCAAGGTC", "fluorescence intensity": "7190 a.u."}
{"Strand": "ATCTTCTGGCCGAGTCACGGGCCAAGCGTAAGGGTG", "fluorescence intensity": "7490 a.u."}
{"Strand": "CGTCCTAGAGATTACCACGTGTTTTCCATGAGGAAG", "fluorescence intensity": "15900 a.u."}
{"Strand": "ACTTACTACAAGCTCAACGTGACTCGTTTGGTGTTC", "fluorescence intensity": "11500 a.u."}
{"Strand": "AAGTGGATTTGCCAGCCCGTGTCTGTTTAGAGATGT", "fluorescence intensity": "9800 a.u."}
{"Strand": "CAATGAAAGTGAAAGCACGTGTCGGATTGTCAACAA", "fluorescence intensity": "19700 a.u."}
{"Strand": "CTTTCCCGATCTTTTCACGTGCGCTTAGCACATTTG", "fluorescence intensity": "16000 a.u."}
{"Strand": "TACAGAGGAGATAAAGGCGTGCCAGCAATTGAAGAG", "fluorescence intensity": "9210 a.u."}
{"Strand": "CCGGATAATCTACATCATGTGGTACGTTAACGATGT", "fluorescence intensity": "8980 a.u."}
{"Strand": "AAAGCAGCTTCGGGGTGCGTGATGGAAAAATGCGAC", "fluorescence intensity": "7140 a.u."}
{"Strand": "TAATAGGCCTGCTGGCACGTTGTTGAATGGCAGATG", "fluorescence intensity": "13600 a.u."}
{"Strand": "AGACAAGGCAACAAAGAAATGTCGTTTTTAATTTTT", "fluorescence intensity": "3670 a.u."}
{"Strand": "CGGGGTTAAGTTTGGTTAGTGGGTGGCTTGCAGCAG", "fluorescence intensity": "4430 a.u."}
{"Strand": "AAAGCGGTAATTTTTCACGTGAGCTCACATATCTAT", "fluorescence intensity": "9790 a.u."}
{"Strand": "CGGGGTTAAGTTTGTCACAGGACTTGCTTGCAGCAG", "fluorescence intensity": "3370 a.u."}
{"Strand": "TTTCAGGCAAGCTGGCAGGTGACGCTCCGCACCTTC", "fluorescence intensity": "3280 a.u."}
{"Strand": "TGCGCAACAACTTGCCGTGTGGGTGTATGTCTAGAA", "fluorescence intensity": "6150 a.u."}
{"note": "For quick reference, copied from above (set 3):"}
{"Strand": "UCCUGUGCUACACAUCGUAUGUACCGAAUCGGGCCCCCCGGCCCCCCGGCCCCCCGGGGAAAGUAUUAUGUUACGCCGUUCGGAUCUGCA", "log2 enrichment": 1.42}
{"Strand": "UUUGAAAAAGAAGAAAAAGAAAAAGAAGGGUAAGGCAUUAAAAAAGUCUUUAUAAAUUUUCUCCAAAAUAAAUGUUUGAUUUUAGCCCUA", "log2 enrichment": -2.91}
{"Strand": "AAGUCCUGUGCUACACAUCGUAUGUACCGAAUCGGUUUUUGGAAAGGUUUUUUUGGAAAGUAUUAUGUUACGCCGUUCGGAUCUGCACUU", "log2 enrichment": -2.43}
{"Strand": "UUGUGGAAAACCCACAUGCUCCUCAGAAAGAUGAUGCCCUGGUGAUCACACACUACAACCGGACCCGACAGCAGGAAGAGAUGCUGGGGC", "log2 enrichment": -0.84}
